# Measured values collected from several papers.
# Numbered parts are unrelated; each lists some results of a single study. Positions count from the first letter of the parent shown.

# Study 1 — method: protein binding microarray; molecule type: double-stranded DNA, one strand shown; medium: in vitro; concentration: not given; reference: not given; direction: higher = stronger binding
# Target: Histone acetyltransferase KAT6A, winged helix 1, GST fusion (KAT6A, Homo sapiens, UniProt Q92794, residues 1-85)
# Notes: 8-mer, flanks averaged, mean of 2 arrays, mostly near background
# Residues (chain): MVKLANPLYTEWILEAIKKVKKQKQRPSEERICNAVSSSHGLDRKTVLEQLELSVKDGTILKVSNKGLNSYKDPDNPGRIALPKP
Strand,E-score
AACTGGGT,-0.236
ATTGGATG,-0.237
CCCTGTCC,-0.0861
CCATAGAC,-0.115
CCCACAGG,-0.194
CTCTACTC,-0.0795
CTGTTAGA,-0.114
CCCACAAC,0.0403
TAGGTTAA,-0.132
CCTAAGAG,-0.219
CGTTTATC,0.0631
CTTGGCAA,-0.255
CGGACTAG,0.153
GCGTTCAA,0.00645
ACATGCAC,-0.0855
AGAAAGCA,-0.235
GAGGTACC,-0.00564
AATGCGGG,0.17
GAGATACC,0.0208

# Study 2 — target: UBE2O UBC core domain (UniProt Q9C0C9); method: yeast two-hybrid; medium: yeast; notes: mostly zero background; reference: not given; direction: higher = stronger interaction
# B1: TRIM26 RING domain (UniProt Q12899); chain PLRSLEEEVTCSICLDYLRDPVTIDCGHVFCRSCTTDVRPISGSRPVCPLCKKPFKKENIRP
# B2: RNF2 RING domain (UniProt Q99496); chain SPRSLHSELMCPICLDMLKNTMTTKECLHRFCADCIITALRSGNKECPTCRKKLVSKRSLR
# B3: RNF122 RING domain (UniProt Q9H9V4); chain AKKLQLYGQTCAVCLEDFKGKDELGVLPCQHAFHRKCLVKWLEVRCVCPMCNKPIASPSEAT
# B4: ANAPC11 RING domain (UniProt Q9NYG5); chain GICRMAFNGCCPDCKVPGDDCPLVWGQCSHCFHMHCILKWLHAQQVQQHCPMCRQEWKFKE
# B5: TRIM22 RING domain (UniProt Q8IYM9); chain VKVDIEKEVTCPICLELLTEPLSLDCGHSFCQACITAKIKESVIISRGESSCPVCQTRFQPGNLRP
# B6: TRIM31 RING domain (UniProt Q9BZY9); chain FVNKLQEEVICPICLDILQKPVTIDCGHNFCLKCITQIGETSCGFFKCPLCKTSVRKNAIRF
# B7: RNF166 RING domain (UniProt Q96A37); chain GDSGLEAQYTCPICLEVYHRPVAIGSCGHTFCGECLQPCLQVPSPLCPLCRLPFDPKKVDK
# B8: MEX3B RING domain (UniProt Q6ZN04); chain SGLRRKGSRDCSVCFESEVIAALVPCGHNLFCMECANRICEKSEPECPVCHTAVTQAIRIF
# B9: RNF187 RING domain (UniProt Q5TA31); chain ALPAGPAEAACALCQRAPREPVRADCGHRFCRACVVRFWAEEDGPFPCPECADDCWQRAVEP
# Construct (chain): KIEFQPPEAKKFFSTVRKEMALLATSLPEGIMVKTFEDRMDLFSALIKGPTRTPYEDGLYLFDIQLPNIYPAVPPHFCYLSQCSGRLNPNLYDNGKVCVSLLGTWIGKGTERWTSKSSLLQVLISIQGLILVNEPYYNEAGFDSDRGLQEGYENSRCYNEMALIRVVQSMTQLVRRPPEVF
Sequence,lacZ reporter activity
B1 (TRIM26 RING domain),0
B2 (RNF2 RING domain),0
PEELAVNNDDCAICWDSMQAARKLPCGHLFHNSCLRSWLEQDTSCPTCRMSLNIADNNR (AMFR RING domain (UniProt Q9UKV5)),0
B3 (RNF122 RING domain),0
B4 (ANAPC11 RING domain),0
B5 (TRIM22 RING domain),0
B6 (TRIM31 RING domain),0
KPDKMEETLTCIICQDLLHDCVSLQPCMHTFCAACYSGWMERSSLCPTCRCPVERICKNH (CHFR RING domain (UniProt Q96EP1)),0
B7 (RNF166 RING domain),0
B8 (MEX3B RING domain),0
B9 (RNF187 RING domain),0
FVKTVEDKYKCEKCHLVLCSPKQTECGHRFCESCMAALLSSSSPKCTACQESIVKDKVF (TRAF3 RING domain (UniProt Q13114)),0

# Study 3 — target: CCNA2, cyclin fold, Cln2 fusion (human); method: yeast growth competition, sequencing; medium: yeast; notes: strong parent motif; reference: not given; direction: higher = stronger binding
# Starting sequence: USP37 docking peptide (human); PSAKRSLGFLPQP
Change,normalised enrichment score
P11A,1.87
F9A,0.147
P13A,1.95
P1A,1.37
S6A,1.94
G8A,3.99

# Study 4 — target: CREB3L2, bZIP domain (human); method: DHFR protein complementation; medium: yeast; reference: wild-type JUN-FOS pair; direction: higher = stronger binding
# Notes: single substitutions, most at no-binding floor
# Starting sequence: JUN, bZIP domain (human); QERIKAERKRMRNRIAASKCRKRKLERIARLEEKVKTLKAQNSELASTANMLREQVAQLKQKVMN; partner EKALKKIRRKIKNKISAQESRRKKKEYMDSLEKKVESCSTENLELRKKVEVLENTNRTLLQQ
Change,binding fitness [natural log]
M51T,-1.54
Q41D,-1.53
K39Y,-1.47
E32I,-1.49
K36V,-1.53
E54V,-1.38
L59P,-1.72
E33L,-1.46
S47I,-1.53
L45M,-1.53
V56Y,-1.46
E33T,-1.31
L52H,-1.39
A46S,-1.53
V56F,-1.31
V35K,-1.51

# Study 5 — method: DHFR PCA, deep sequencing; medium: yeast; together with: (+)-ABA 0.39 µM; reference: wild-type fitted maximum; direction: higher = stronger binding
# Target: ABI1, truncated, D143A, DHFR fusion (Arabidopsis thaliana)
# Notes: methotrexate growth selection, single substitutions
# Starting sequence: PYL1, truncated, DHFR fusion (Arabidopsis thaliana); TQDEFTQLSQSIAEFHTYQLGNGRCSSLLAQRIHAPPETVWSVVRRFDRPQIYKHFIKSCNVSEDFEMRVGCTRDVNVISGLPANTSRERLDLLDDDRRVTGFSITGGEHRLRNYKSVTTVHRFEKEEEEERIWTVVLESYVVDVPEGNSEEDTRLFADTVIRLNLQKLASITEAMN
Change,relative binding score [%]
N22D,56.2
G148W,-18.7
L20P,57.2
Q19V,38.8
T6A,54.8
E129M,32.2
M68Q,2.33
I162A,6.88
V121E,-3.2
T17I,-2.73
T120L,-4.2
N77F,37.5
T154H,-20.7
L94W,12.9
G102L,-6.4
R24W,-5.24
R163N,-16.1
P36W,-4.82
E128N,52.8
S104E,-15.1

# Study 6 — method: RNAcompete; molecule type: RNA; medium: in vitro; concentration: 20 nM; notes: 7-mer, probes averaged, single round; reference: mean of 7-mers; direction: higher = stronger binding
# Target: PABPC1L2, full length, GST fusion (mouse, UniProt A0ABA7IW68)
# Construct (chain): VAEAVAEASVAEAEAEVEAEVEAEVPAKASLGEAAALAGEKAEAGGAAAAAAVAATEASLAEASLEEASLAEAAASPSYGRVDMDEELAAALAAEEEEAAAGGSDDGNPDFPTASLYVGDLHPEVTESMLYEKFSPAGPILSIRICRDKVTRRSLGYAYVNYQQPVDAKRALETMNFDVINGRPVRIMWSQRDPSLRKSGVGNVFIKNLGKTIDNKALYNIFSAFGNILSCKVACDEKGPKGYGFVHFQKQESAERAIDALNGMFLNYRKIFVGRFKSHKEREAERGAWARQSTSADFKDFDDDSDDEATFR
Strand,7-mer Z-score
CCCUCAA,-0.151
AACCACA,0.0533
CCCCAUU,-0.432
GGUGGAG,0.0678
CUUACUA,-0.255
AAGUUGU,0.0116
GUCCUCC,-0.335
CCCCUGU,-0.416
CUCAGCA,-0.0899
GUUAUCG,-0.242
AUCGCAC,-0.162
CCCCUGA,-0.257
CACGUAG,-0.05
CAUCACA,-0.00289
UGCGGGG,0.325
GCGUACC,-0.231
CCGUGUU,-0.46
ACACGAG,0.244
UCGGGGA,0.1
GCUCCUC,-0.414
CUCUUAU,-0.248
ACACCCG,-0.0899
CCUCAAC,-0.286

# Repeated from above (study 2):
Sequence,lacZ reporter activity
B1 (TRIM26 RING domain),0
B2 (RNF2 RING domain),0
PEELAVNNDDCAICWDSMQAARKLPCGHLFHNSCLRSWLEQDTSCPTCRMSLNIADNNR (AMFR RING domain (UniProt Q9UKV5)),0
B3 (RNF122 RING domain),0
B4 (ANAPC11 RING domain),0
B5 (TRIM22 RING domain),0
B6 (TRIM31 RING domain),0
KPDKMEETLTCIICQDLLHDCVSLQPCMHTFCAACYSGWMERSSLCPTCRCPVERICKNH (CHFR RING domain (UniProt Q96EP1)),0
B7 (RNF166 RING domain),0
B8 (MEX3B RING domain),0
B9 (RNF187 RING domain),0
FVKTVEDKYKCEKCHLVLCSPKQTECGHRFCESCMAALLSSSSPKCTACQESIVKDKVF (TRAF3 RING domain (UniProt Q13114)),0
